Measured values pooled from the literature.
A part holds a random share of what one study measured. Substitutions count along the parent as printed.

Series 1
Target: CCNB2, cyclin fold, Cln2 fusion (human)
Method: yeast growth competition, sequencing
Medium: yeast
Notes: weak parent motif
Relative to: not given
Reading: higher = stronger binding
Parent: CDC6 docking peptide (human); TLKGRRLVFDNQL; partner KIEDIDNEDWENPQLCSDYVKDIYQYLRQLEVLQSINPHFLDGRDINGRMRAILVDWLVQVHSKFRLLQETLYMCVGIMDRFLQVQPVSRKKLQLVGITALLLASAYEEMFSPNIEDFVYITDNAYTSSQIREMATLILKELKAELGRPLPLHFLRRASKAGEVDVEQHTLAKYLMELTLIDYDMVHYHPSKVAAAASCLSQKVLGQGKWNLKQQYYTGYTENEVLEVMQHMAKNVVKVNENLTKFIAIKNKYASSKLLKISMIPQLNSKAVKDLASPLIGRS
Substitution	normalised enrichment score
TLKGRRLVGDNQL [F9G]	-0.473
TKKGRRLVFDNQL [L2K]	0.278
TLKGRRLVFDNQY [L13Y]	0.865
TLKGRRLCFDNQL [V8C]	0.62
TLKGRRLVFDNIL [Q12I]	0.405
TLKGRRLVDDNQL [F9D]	-0.0042
TLKGRRIVFDNQL [L7I]	0.78
TLKGRRLVTDNQL [F9T]	-0.00641
TWKGRRLVFDNQL [L2W]	-0.0483
TLKGRRLVFDKQL [N11K]	0.502
TLKGRRLVFDNQV [L13V]	0.00627

Series 2
Target: ABI1, truncated, D143A, DHFR fusion (Arabidopsis thaliana)
Method: DHFR PCA, deep sequencing
Medium: yeast
Notes: methotrexate growth selection, single substitutions
Added: (+)-ABA 0.032 µM
Relative to: wild-type fitted maximum
Reading: higher = stronger binding
Parent: PYL1, truncated, DHFR fusion (Arabidopsis thaliana); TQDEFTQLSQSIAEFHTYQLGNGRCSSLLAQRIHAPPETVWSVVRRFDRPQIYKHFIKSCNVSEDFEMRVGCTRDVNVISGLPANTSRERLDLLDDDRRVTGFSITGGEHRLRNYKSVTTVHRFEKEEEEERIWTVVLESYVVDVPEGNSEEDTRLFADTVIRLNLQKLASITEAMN
Substitution	relative binding score [%]
T17N	-1.57
V62E	0.704
F15S	0.179
P146D	3.34
P50T	-1.37
E129H	27.6
A13D	17.5
S117M	1.69
D92M	1.42
G81T	33.4
T154R	-4.45
T135F	-5.77
T17S	17.4
M68Y	-0.954
V142N	-5.36

Series 3
Target: Histone acetyltransferase KAT6A, winged helix 2, GST fusion (KAT6A, Homo sapiens, UniProt Q92794, residues 85-181)
Method: protein binding microarray
Form: double-stranded DNA, one strand shown
Medium: in vitro
Tested at: not given
Notes: 8-mer, flanks averaged, mean of 2 arrays, mostly near background
Relative to: not given
Reading: higher = stronger binding
Residues (chain): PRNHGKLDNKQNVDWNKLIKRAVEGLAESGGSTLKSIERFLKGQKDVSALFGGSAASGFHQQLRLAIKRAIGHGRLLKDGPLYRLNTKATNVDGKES
Strand	E-score
AAGTATTA	-0.0185
CAACCGTA	-0.236
ATGTATCC	-0.127
ATATATTA	-0.0163
GACAAAGC	0.111
GATACAAC	0.0333
AGCGCTGA	0.0304
GGTAGAAC	-0.105
CTCCACAC	-0.0551
GGCCCGTA	-0.0718
AATCTACC	-0.102
CAAGGTAC	-0.0967
CGAGCCAC	0.0419
CAGTGACG	0.0589
CGTGATTC	-0.114
CTTTGGCA	-0.0347

Further values, each from its own experiment
Molecule	target	test	test system	conditions	scale	endpoint	value
PhoQ, residues 284 288 289 292 302 303 GNNTDL	PhoP, residues 12 14 15 18 19 LWHCS (Escherichia coli, UniProt P23836)	Sort-seq, refers to: YFP reporter	E. coli	PhoQ-PhoP variant library, added: 10 µM Mg2+	relative to: high Mg2+ state, higher = stronger signaling	fold induction	1.67

Excerpt of the above (series 2):
Substitution	relative binding score [%]
S117M	1.69
D92M	1.42
G81T	33.4
T154R	-4.45
T135F	-5.77
